Experimental data pooled from the literature.
Protocols differ between the studies behind these lines. ± gives the spread as reported.

Substance	assay	system	conditions	how to read	quantity	result
Cc1cc(S(C)(=O)=O)c(S(C)(=O)=O)cc1C(=O)NC(=N)N	–	ambulant boys with DMD	oral, dose not given, 4 weeks	–	QTc interval (QTcB or QTcF)	< 450 ms
CNCc1ccc(-c2[nH]c3cc(F)cc4c3c2CCNC4=O)cc1	–	human patients, plasma	oral, 360 mg twice daily, day 15, steady state, arithmetic mean	–	AUC(0-t)	9430 ng·h/mL
Cc1cc(-c2ccc(/N=N/c3c(S(=O)(=O)O)cc4cc(S(=O)(=O)O)cc(N)c4c3O)c(C)c2)ccc1/N=N/c1c(S(=O)(=O)O)cc2cc(S(=O)(=O)O)cc(N)c2c1O	dynamic light scattering	50 mM potassium phosphate	pH 7.0	–	critical aggregation concentration	30 µM
CNC(=O)c1cc(Oc2ccc(NC(=O)Nc3ccc(Cl)c(C(F)(F)F)c3)cc2)ccn1	population PK model	human, AML patients	oral, typical at 80 kg	–	total clearance	235 mL/min
CSc1cc(C)nc(SC)c1NC(=O)CN1CCN(CCSc2nc3ccccc3[nH]2)CC1	–	mouse Crl:CD1 (ICR) female, cerebrum	intranasal repeated, 32.4 µg in 0.01 N HCl, 5 min	–	concentration	21 ng/g
O=C(c1ccc(OCCN2CCCCC2)cc1)c1c(-c2ccc(O)cc2)sc2cc(O)ccc12	–	healthy humans, plasma	oral, 60 mg, added: water	–	AUC(0-96 h)	0.0149 µM·h
Clc1ccccc1C(c1ccccc1)(c1ccccc1)n1ccnc1	shake-flask	PEG400	37 °C	–	thermodynamic solubility	74.5 ± 5.92 mg/g
O=C(O)CNC(=O)c1ccco1	–	human hemodialysis patients, plasma	pre-treatment	reference: hemodialysis over normal subjects	total plasma concentration ratio	64
O=c1ccn([C@@H]2O[C@H](CO)[C@@H](O)[C@H]2O)c(=O)[nH]1	–	male CD-1 mice, small intestine without content	intravenous, 1 mg/kg, 1 h	–	share of tissue radioactivity	3.1%
CCSCc1ccc2c(c1)c1c3c(c4c5cc(CSCC)ccc5n5c4c1n2[C@H]1C[C@](O)(C(=O)OC)[C@]5(C)O1)CNC3=O	–	HIV-infected patients, plasma	oral, 50 mg twice daily, day 21, steady state, added: atazanavir/ritonavir 300/100 mg once daily	–	AUC(tau)	3560 ng·h/mL
C[C@H](Oc1ccc(-c2nc(-c3ccc4[nH]cnc4c3)no2)cc1C(F)(F)F)C(F)(F)F	–	cynomolgus monkey, aneurysm model, plasma	0.1 mg/kg once daily, 8 h post-dose, 4 weeks dosing	–	plasma concentration	22 ± 3.8 nM
O=C(CCc1ccccc1)c1cc(F)ccc1OCC(O)CN1CCC(c2ccccc2)CC1 (stereo not shown)	metabolic stability	female mouse, liver microsomes	20 µM, pH 7.4	–	scaled CLint	27.3 mL/min/kg
CS(=O)(=O)Nc1ccc(C(=O)O[C@@H](Cc2c(Cl)c[n+]([O-])cc2Cl)c2ccc(OC(F)F)c(OCC3CC3)c2)cc1OCC1CC1	–	human, plasma	inhalation, 2400 µg twice daily, day 1, median	–	tmax	3 h
CCOc1c([C@H](C)n2nc(C)c3c(N)ncnc32)cc(Cl)c(F)c1[C@@H]1CNC(=O)C1	–	Japanese patients, plasma	oral, 20 mg once daily, cycle 1 day 15	–	Vz/F	31.2 ± 9.8 L
CCCC[C@H](NC(C)=O)C(=O)N[C@H]1CCC(=O)NC[C@@H](C(=O)N[C@@H](Cc2c[nH]c3ccccc23)C(N)=O)NC(=O)[C@H](CCCNC(=N)N)NC(=O)[C@@H](Cc2ccccc2)NC(=O)[C@H](Cc2c[nH]cn2)NC1=O	–	beagle dog, female, plasma	subcutaneous, 1.5 mg/kg daily, day 28	–	AUC(0-last)	210 ng·h/mL
des-acyl ghrelin (human)	–	Ghsr knockout mice, midbrain	intravenous, dose not given, 10 min, vascular space corrected	–	tissue/serum ratio	5.82 µL/g
COc1cc(C)c(/C=C/C(C)=C/C=C/C(C)=C/C(=O)O)c(C)c1C	shake-flask	PEG400	37 °C	–	thermodynamic solubility	1.07 ± 0.01 mg/g
COc1ccc2c(O[C@@H]3C[C@H]4C(=O)N[C@]5(C(=O)NS(=O)(=O)C6CC6)C[C@H]5/C=C\CCCCN(C)C(=O)[C@@H]4C3)cc(-c3nc(C(C)C)cs3)nc2c1C	–	Caco-2	–	–	Papp A→B	0.19 ×10⁻⁶ cm/s
CC(C)C[C@H](N)C(=O)N1CCC[C@@H](NCC(=O)N2CCC[C@H]2C(N)=O)C1	capillary electrophoresis-MS	water	–	–	pKa2	8.46

Some of these lines once more:
Substance	assay	system	conditions	how to read	quantity	result
C[C@H](Oc1ccc(-c2nc(-c3ccc4[nH]cnc4c3)no2)cc1C(F)(F)F)C(F)(F)F	–	cynomolgus monkey, aneurysm model, plasma	0.1 mg/kg once daily, 8 h post-dose, 4 weeks dosing	–	plasma concentration	22 ± 3.8 nM
